Measured values collected from several papers.
Every numbered part comes from another study and shows a few of its results, in no order.

Set 1 — technique: RNA Bind-n-Seq; molecule type: RNA; sample: in vitro; tested at: 365 nM; relative to: no-protein control; direction: higher = stronger binding; endpoint: RBNS enrichment (R)
Target: RNA binding protein fox-1 homolog 2, RRM domain, GST-SBP tag (RBFOX2, Homo sapiens, UniProt O43251-10, residues 100-194)
Setting: natural RNA segment, single round, ends assumed
Constant ends, left off below: GGGAGUUCUACAGUCCGACGAUC … UGGAAUUCUCGGGUGCCAA
Target sequence (chain): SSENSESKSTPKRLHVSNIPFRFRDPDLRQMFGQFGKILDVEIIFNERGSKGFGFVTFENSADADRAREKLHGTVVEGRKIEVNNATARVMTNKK
UACUAGACCUCAACCACAGUCUUCUUUUUCCCCUUCCACCUCUCUUUGCCUGUAGGAUGUACUGUAUGUAGUCAUGCACUUUGUAUUAAUAUAUUAGAAAUCUACAGAUC: 2.1
ACAUGGAGUGGAGAUUGGAUCAUUUAACAAUAUAACAAAACUUCCUGAUUUGAUUUUACGUAUCUUCUAUCUACGCCCUUCCUGUGCCUGUGACUCUCCCCAAAUUGCCC: 0.359
AGGUGGGUGUGGCCUGUGUUUUCCCUUCUGUUCUUUCUGCCUGUACUGGAUCUGUUAUUUUCAGGGAAACAGGCCCCAGGGCCCCCCUGAGCCUCACCCUAAGCCCUUAG: 1.98
AGGUUCCAGACCAGCCUGCUGGCCUGCGACUCUUCACAGUGCAAAUUCCCCACAAGCGCCUGCGCCAGCCCCCUCCCUGCUACCUCACAGCCUGGGAUGGCUCCAACUUC: 0.342
AGCAGUUGAGGAAAAAAGACAACAUAGGAGUUAUUAAUGUCAAUACCCAUCAACAUAAUCACUCUGACAAUGUUCACGCAUUCAACUAUGAGUUCAUAUGUGGAAGAAAA: 0.303
AAACCUGGAGUCCUUAUCCUCCCCUCUGUAAGUGUUUUAGGGUCUGGCUUUUGCAGGCACCCUCUGACCUCAGCAGAGCUCCUGGGCCUGCUGCCUGCACACCACAUCGC: 0.604
GGGGAUCCAAGCUGCUUGAGGGGGUCAACCUUGGACCAAAGUUGCCUUAAGCCUGUGGUAAAAGGGCUUCAGGGAAGGUAAGUGGGCCACCUGCUGGAAGCUGCCAGCUG: 1.43
AGAUCCAGUCUAUAAUUACAGAUUUUGUAAGAAAAAAUAUAUAUACACAUAACUGACUGGAAAGAAUUAAUUUCUUUCCCCCAGCUUAAUGCAUGUUGAGGAUAUUGAGC: 2.62
AGGGUAAACUUUUGAGAUUUUUUUUUUUAAAACAAUUUUAUGUUUGUGCACUUUGUGUUAAUCUCACCAAAAAUCAUCAUAGGAAAGGAUUAUGGUUUUUAGUUAUGACA: 0.666

Set 2 — technique: protein-binding microarray; molecule type: double-stranded DNA, one strand shown; sample: in vitro; tested at: 250 nM; setting: 60-bp whole probe; added: salmon DNA 0.4 mg/ml; relative to: random background probes; direction: higher = stronger binding; endpoint: log fluorescence; constant ends, left off below: GCCTAGCAC … GTCTTGATTCGCTTGACGCTGCTG
Target: Interferon regulatory factor 7, full length, phosphomimetic (IRF7, Homo sapiens, UniProt Q92985, residues 1-503, S101K/S471D/S472D/S475D/S476D/S477D/S483D/S484D/S487D)
Residues (chain): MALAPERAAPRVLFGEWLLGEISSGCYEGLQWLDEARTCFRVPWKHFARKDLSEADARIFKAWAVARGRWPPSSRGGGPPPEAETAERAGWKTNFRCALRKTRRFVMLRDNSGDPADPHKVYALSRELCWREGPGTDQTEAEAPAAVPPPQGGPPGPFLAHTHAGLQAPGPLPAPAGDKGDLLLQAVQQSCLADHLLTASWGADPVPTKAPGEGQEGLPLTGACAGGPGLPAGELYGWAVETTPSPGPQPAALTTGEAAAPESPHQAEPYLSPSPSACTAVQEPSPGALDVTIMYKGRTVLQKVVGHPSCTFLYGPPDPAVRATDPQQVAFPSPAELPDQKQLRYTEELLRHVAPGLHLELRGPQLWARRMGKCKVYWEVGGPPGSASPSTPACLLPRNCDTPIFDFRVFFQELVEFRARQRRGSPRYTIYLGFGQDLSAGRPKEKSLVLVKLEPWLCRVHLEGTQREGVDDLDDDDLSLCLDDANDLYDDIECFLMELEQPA
TCAAGTTTCTCAACCACACTGTGCTAG: 0.647 z-score
GACGGACTGGGGACTGGAGACGTGCTA: -0.766 z-score
GACGGTATCCTTTTCCTCACGTGCTAG: 1.49 z-score
TCATAATTCACTATTACACTGTGCTAG: 0.638 z-score
TTAGGATTGGGTTTCGGTTAGTGCTAG: 6.87 z-score
ATCACTTTCCACTTGTCTTTGTGCTAG: 2.61 z-score
TTAGGTCGCGGACTGGGTTAGTGCTAG: -0.0182 z-score
TTTCTTTTGCTTGTTCTTAGCGTGCTA: 0.94 z-score
TTAGATATCGGGACTGGATCAGTGCTA: -0.147 z-score
CCGAGAAACAGTAACCCTCTGTGCTAG: -0.045 z-score
TTAGATTTCAGTCTGGATTAGTGCTAG: -0.0109 z-score
GATGATTTCAGTATCGAGACGTGCTAG: 0.379 z-score
TTAGGTATCGACTATCCGTTAGTGCTA: 0.472 z-score
TTAGGTATCGGGTATCGGTAAGTGCTA: 1.12 z-score
TCAATGATCTCTCTGGGACTGTGCTAG: -0.167 z-score
GAAGGACTGGACTTTCGGGACGTGCTA: -0.373 z-score
GACGGACTGCTTTTCTTGACGTGCTAG: 0.0693 z-score

Set 3 — technique: RNA Bind-n-Seq; molecule type: RNA; sample: in vitro; tested at: not given; relative to: input RNA pool; direction: higher = stronger binding; endpoint: bound/input enrichment
Target: RING finger protein unkempt homolog, zinc fingers 1-6, GST-SBP tag (UNK, Homo sapiens, UniProt Q9C0B0, residues 30-357)
UniProt Q9C0B0, sequence (30-357, looked up): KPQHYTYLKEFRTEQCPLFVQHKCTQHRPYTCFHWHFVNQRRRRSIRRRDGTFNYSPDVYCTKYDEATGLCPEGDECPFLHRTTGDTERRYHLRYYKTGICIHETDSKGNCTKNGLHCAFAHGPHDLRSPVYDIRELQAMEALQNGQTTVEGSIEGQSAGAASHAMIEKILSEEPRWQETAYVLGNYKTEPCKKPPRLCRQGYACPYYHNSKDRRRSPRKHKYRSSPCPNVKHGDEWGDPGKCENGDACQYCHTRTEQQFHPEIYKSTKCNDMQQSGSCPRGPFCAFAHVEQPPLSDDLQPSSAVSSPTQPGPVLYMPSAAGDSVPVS
Setting: RNA with constant flanks, human-mouse chimeric sites, ends assumed
Constant ends, left off below: GGGAGUUCUACAGUCCGACGAUC … CAACAGAGGAUUGAGCAUCA
AAUUUCCUGUCAUACUUUUUAGACAUUCACAUCAGACUUACAGAGCAUUGGGCCUCUUUCUAGGUUUGAAUUAUUUCUCAGCUAUGGAUAUGAUCAAAUGAGAACACUGCUUAACUAAUG: 0.636 ratio
UCAUUUUGCUCGGGUUAUUCUUUCCUUUAGGAAAAGCCUAAAGAUUAGGUUGUAAGAAAAACAGAAGCCAUGUUUCGAAGACCUGUAUUACAGGUAUUUCGUCAGUUUGUAAGACAUGAG: 0.604 ratio
AUCAAAUACUUUGGGGAUAUUAUUAGCGUGGGACAGAGACUGUUGCAAGGAGCUCGGAUCUUAGGGAUUCCAGUUAUUGUAACAGAACAAUACCCCAAAGGACUUGGCAGCACCGUUCAA: 0.263 ratio
CCUCUGCCCCGCUCUGCAGCCUGGGGACUUUUGGCAAGGACCAGAAUCCAGCUUUCUUUUAAAACUCUCAGUGUAACUGUAUCCCGUGACAUUUCAUUUUUUUUAAAUAGUGUAUUUUUU: 3.54 ratio
GAUAAGAAAAGCUUGUUGGAGACCCGCUUGCAUGUCACUGGUAGAGACCUGAGGUGUAAAAUAGCUGAAACUUUCGGAUUUCAAGAAAAUUACAUCAAGAUCGUAAUAAAUAAGAAACAG: 0.363 ratio
CCCCAAUUACCAUCUGUAGAGUUGGAAUGCACUCUCUUUUUUAAAAAACAUGUAUACAUUUUAGGGCUGUAGAUUUAUUUUCCUGGUUUUGUUUUUCAUUGCUGACUUUUGAGCACAGAA: 2.04 ratio
GGGGAGAAACCUUACGAAUGCGUUCAGUGUGGGAAAUCCUACAGUCAGAGCUCAAACCUCUUCAGACAUCAGAGACGACACAAUGCAGAAAAACUUUUGAAUGUUGUGAAAGUUUAAGAA: 0.2 ratio
UAAGUCCAUUUGUAAGCCUUCGCUCAUAAAGUUUUAAAUUCAAGAAAAAUAGUGUUUGUUUCCUGAUUAUUGUAUCCAAUACUUUGCCUAGUAUGUAACUCACUCUUACUGAUAAUAAAA: 6.06 ratio
AAAGAACUACUGAGGCAAGGCAGCAAAUUUAGAAGAAACAUUUCAACAAUAUUGAUAGAGUUAGGAUUCCAAAUUAAAAAGAAAACUAAAAGAUUGUACAUCAACAAAGCCAAUGUGUGG: 17.1 ratio
GGACAUCUGUCAAAUUGUUAUGUUCCUGUGAAACAAGUGAACACUCUGAUACACUUCAUCUGCUUGUACAUCUGUAUGAUAGAGAAACAGAAAUCUAUUAAUCCAAGAUGAAUUCAACUU: 0.119 ratio
UCCCAAAUCCAGCAGCUCCUUGAAAUAUUGAGACAAAGCCUGGAAAUACAGGGAAGGCGAUAACAUUGUACAUUGGUUUACAUUUUUUCCCCCUGUGGAUUUUUCUAGAGGUCAUAGUGC: 0.354 ratio

Set 4 — technique: universal PBM; molecule type: double-stranded DNA, one strand shown; sample: in vitro; tested at: not given; direction: higher = stronger binding; endpoint: E-score
Target: Sal-like protein 4, full length isoform B (SALL4, Homo sapiens, UniProt Q9UJQ4-2, residues 1-616)
Setting: 8-mer, flanks averaged, mean of replicates
CCAGATTC: -0.197
CAGTTGAA: -0.0488
GTTTATCA: 0.193
ATGTGGTA: 0.173
GCGGAACA: -0.195
CTGAAACC: -0.114
TAACGCTA: 0.121
ACGCGTAG: -0.123
AACGGCCT: -0.19
CAGAGGGC: -0.253
GGAATACA: 0.16
ACCACGAT: 0.0616
AAAGGAAA: 0.282
ACCTTGTG: -0.137
CCTTAGGC: -0.202
ACGATGCG: -0.0104
GCGGTCAC: -0.288
TGGAAGAA: 0.146
GGGATTAC: -0.153
ATCCTATG: 0.0769
TCATTCCA: 0.0319
CCGCATAG: 0.0541
AGGGTACA: 0.0421
CAACGGGA: -0.193
GATCATCC: -0.0788

A few entries again (set 1):
AGGUGGGUGUGGCCUGUGUUUUCCCUUCUGUUCUUUCUGCCUGUACUGGAUCUGUUAUUUUCAGGGAAACAGGCCCCAGGGCCCCCCUGAGCCUCACCCUAAGCCCUUAG: 1.98
AGGUUCCAGACCAGCCUGCUGGCCUGCGACUCUUCACAGUGCAAAUUCCCCACAAGCGCCUGCGCCAGCCCCCUCCCUGCUACCUCACAGCCUGGGAUGGCUCCAACUUC: 0.342
AGCAGUUGAGGAAAAAAGACAACAUAGGAGUUAUUAAUGUCAAUACCCAUCAACAUAAUCACUCUGACAAUGUUCACGCAUUCAACUAUGAGUUCAUAUGUGGAAGAAAA: 0.303
AAACCUGGAGUCCUUAUCCUCCCCUCUGUAAGUGUUUUAGGGUCUGGCUUUUGCAGGCACCCUCUGACCUCAGCAGAGCUCCUGGGCCUGCUGCCUGCACACCACAUCGC: 0.604
